Assay results collected from several papers.
Parts stem from different laboratories: compare values within a part only. Changes are numbered by the printed parent chain.

Series 1
Target: Centromere-binding protein 1, full length, N-terminal tag (CBF1, Saccharomyces cerevisiae, UniProt P17106, residues 1-351)
Chain of UniProt P17106 (whole entry, looked up): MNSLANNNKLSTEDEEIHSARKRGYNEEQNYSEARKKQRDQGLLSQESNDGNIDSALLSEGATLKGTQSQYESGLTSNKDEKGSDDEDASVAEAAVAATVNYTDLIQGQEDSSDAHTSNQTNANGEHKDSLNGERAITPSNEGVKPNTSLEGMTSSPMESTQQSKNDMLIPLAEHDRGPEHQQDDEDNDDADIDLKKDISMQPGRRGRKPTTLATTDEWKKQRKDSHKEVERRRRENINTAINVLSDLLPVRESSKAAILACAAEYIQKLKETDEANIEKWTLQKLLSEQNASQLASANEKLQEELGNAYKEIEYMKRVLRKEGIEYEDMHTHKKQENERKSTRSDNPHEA
Technique: protein-binding microarray
Molecule type: double-stranded DNA, one strand shown
Matrix: in vitro
Tested at: 0.8 µM
Setting: whole 60-bp probe, no competitor
Direction: higher = stronger binding
Constant ends, left off below: … GTCTTGATTCGCTTGACGCTGCTG
The fluorescence intensity of `GAAACACAGATCTTGCGTGCTCCGAAATAGCCTTAG` is reported as 521 a.u.
For `CTAAACATTCAATTCCTCACCTGGTGCGCACTTTTC`, the fluorescence intensity was 543 a.u.
With `GAATTCTTTCTACAGGTGATTGTATGTGGGCTTTAG` the fluorescence intensity was 639 a.u.
`CTAAATTCTCGCAAACACGTCACAAGAAACAAATTC` gave a fluorescence intensity of 772 a.u.
For `GAATACGACATTTGGCTCATCACCAGCTCGCGATAG`, the fluorescence intensity was 509 a.u.
For `CTACATGATTATTGTGACCAGTAACATTTGCTGTTC`, the fluorescence intensity was 534 a.u.
`GAAACAAACAGCAACCACGTTCATAGTCTGAAATAG` has a fluorescence intensity of 550 a.u.
`GAACGACGATTTCCTCACGAGATGGGATGGTAATAG` has a fluorescence intensity of 604 a.u.
`CTACTGTTTTAGAATCGCATCAGGTGTTTACCATTC` gave a fluorescence intensity of 1600 a.u.
`GAATCACATCCACGTGACCAGTTTCCAATCGAATAG` gave a fluorescence intensity of 18400 a.u.
The fluorescence intensity of `GAACGTATAAAAGCACACATGACATAACCGAACTAG` is reported as 1180 a.u.
With `GAACTGAATAAGTATCAGCAGAAATTTTTTAATTAG` the fluorescence intensity was 506 a.u.
The fluorescence intensity of `GAAGGGGACCGCTGTCACCTTGCCTGGGAAAGATAG` is reported as 555 a.u.
`CTAACAACTTTATGTTTCACGTTATGAAAGAATTTC` gave a fluorescence intensity of 673 a.u.
The fluorescence intensity of `GAAGGGGAACTGTACAACACGTTCAACCAAAACTAG` is reported as 554 a.u.
The fluorescence intensity of `CTAATTCAAATACCCCCCGTGAAGTATCAGATGTTC` is reported as 579 a.u.

Series 2
Target: RNA binding protein fox-1 homolog 2, RRM domain, GST-SBP tag (RBFOX2, Homo sapiens, UniProt O43251-10, residues 100-194)
Technique: RNA Bind-n-Seq
Molecule type: RNA
Matrix: in vitro
Tested at: 365 nM
Setting: natural RNA segment, single round, ends assumed
Relative to: no-protein control
Direction: higher = stronger binding
Constant ends, left off below: GGGAGUUCUACAGUCCGACGAUC … UGGAAUUCUCGGGUGCCAA
Target sequence (chain): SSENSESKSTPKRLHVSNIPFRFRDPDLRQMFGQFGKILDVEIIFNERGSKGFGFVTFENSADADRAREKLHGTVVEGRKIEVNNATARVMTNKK
`CUGUAAGUUCUAAAUGUGUACUCCUGAGGUUACAGUUUGGGUGUUAGGAGAAGUCUUUGUAGUCUCUUUAUGUUCAUAAUGAAUACUGUAUCAAUAUUUCCUAACAUGAA` — result for “RBNS enrichment (R)”: 0.54.
`AAGGACUGACUCAAGCUGUGUCUUUCAGACCAAGGAACAUCAGAGAAGCUGUGGGGCUGCCUGCCAGGCAGGAUCAUGGCUGCCAUCAAGCCUUUUCUGGAUCCAGCCAU`: “RBNS enrichment (R)” 0.251.
`GACUGCAGUCCCCAAGGAGACCCUGCCACAUGCUGGCCCUUUGAGUGAGAAUGCUGCAUCUUUCUACAUAUCUUCAUGAGAAUACUGAGAAUUGGAUUUUCCUUUUCAAA` — result for “RBNS enrichment (R)”: 1.19.
`GGUUCUGCAACCACCAGGGAGGCAGCCCGAGGUGAUGCUGCUCACCGCGCCCUACAGUACCUCAGGAUCAUGGCGGGUAGCAAGUAGCAUCCCACUGCAGUGAUGGAUAU`: “RBNS enrichment (R)” 0.507.
For `ACUUUGUAUUUACAAAGCAAGUAGAGGUCUUAAAUUUGCUUCAAGAAGCAGUUGCUCCACUGGAAUUUCUAUAAAGCUGGGUAAAGGGUUAGCAGAAUUACAGAUCUUAA`, “RBNS enrichment (R)” read 0.45.
`GUUCCUGGCUGUCUCUGUUCCCUUGCUGUGGGGCUGUGUCCCUCCUUUGGGAGCAUGUGUGGCUAGGGUGUGGCAGCCUUUGUCUGACAUGCAGUAUAGUAGGUCCCUGA` — result for “RBNS enrichment (R)”: 0.576.
`GUCUGUGUGCUCUCGCAAUGUUCCUGUCUAAUUCUUGACUGAUUCUGGGUCUGUCCUGACCUCUAGAGGUGAGCUUGCUGCUUGAGGUCUCCCAGCUCCUGACUGUGGCA` — result for “RBNS enrichment (R)”: 0.559.
For `CCCCAGCAGGCUGCGUGUUUAAGAAUUUCAUUGUUUAACUGGCUGGUGUGAGAAGUCUUCCGUUAGCAUAGAGUGGAAGGAGUACUAUUGUUUGGUUGGGUUUUUGUUUG`, “RBNS enrichment (R)” read 1.52.
Under “RBNS enrichment (R)”, `AAGUCAUACCAAUGAAAAAAUGUAUAUGCACUUAUAAUUUUCCUAAUAAAGUUCUGUACUCAAAUGUGCCACCAACAGUUUGAAAUUAGUGUUACUACUUGGAAUUUUCU` is recorded as 0.576.
For `CAGAUGUUAAGGUACAACUGUGUUUUUCUCGAUUAUCUAAAAACCAUAGUACUUAAAUUGAACAGUUGCAAAGAUGUCUUAAUUGUGUAAAGAAUUGGUGUAGUCAUGAC`, “RBNS enrichment (R)” read 0.596.
`AGUAGGACCAGGCCACCGCUAGUGCUUGUGGAGAUCACAGCCCCACCCUUGUCCCUCAGCAACAUCCCAUCUAAGCAUUCCACACUGCAGGGAGGAGUGGUACUUAAGCU`: “RBNS enrichment (R)” 0.556.
Under “RBNS enrichment (R)”, `CGUCCCAAGAUGUUGAUUUUUACUGUGUUUUAUAAAAUAGAGUGUAGUUUACAGAAAAAGACUUUAAAAGUGAUCUACAUGAGGAACUGUAGAUGAUGUAUUUUUUUCAU` is recorded as 0.652.

Series 3
Target: ABI1, truncated, D143A, DHFR fusion (Arabidopsis thaliana)
Technique: DHFR PCA, deep sequencing
Matrix: yeast
Setting: methotrexate growth selection, single substitutions
Added: (+)-ABA 0.39 µM
Relative to: wild-type fitted maximum
Direction: higher = stronger binding
Starting sequence: PYL1, truncated, DHFR fusion (Arabidopsis thaliana); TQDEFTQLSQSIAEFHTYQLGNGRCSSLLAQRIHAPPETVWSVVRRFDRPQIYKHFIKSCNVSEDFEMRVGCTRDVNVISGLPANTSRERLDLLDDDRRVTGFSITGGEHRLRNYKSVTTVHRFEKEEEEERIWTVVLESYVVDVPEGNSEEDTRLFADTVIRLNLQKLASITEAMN
Under “relative binding score”, `V43E` is recorded as -0.38%.
Under “relative binding score”, `M176W` is recorded as 15.7%.
`N114C` — result for “relative binding score”: 3.68%.
For `E64D`, “relative binding score” read 57.3%.
`E67C` — result for “relative binding score”: 32.3%.
For `D48W`, “relative binding score” read -10.2%.
For `E4I`, “relative binding score” read 48.6%.
For `D144A`, “relative binding score” read -9.13%.
For `L28W`, “relative binding score” read -0.148%.
For `T86H`, “relative binding score” read 44.6%.
`L164Q`: “relative binding score” 30%.
`K116L`: “relative binding score” -3.44%.
Under “relative binding score”, `R24L` is recorded as 10.7%.
`K116S`: “relative binding score” 38.5%.
For `L156V`, “relative binding score” read 32.9%.
Under “relative binding score”, `I52G` is recorded as 0.744%.
`E67R` — result for “relative binding score”: 26%.

Series 4
Target: CCNB3, cyclin fold, Cln2 fusion (human)
Technique: yeast growth competition, sequencing
Matrix: yeast
Setting: weak parent motif
Relative to: not given
Direction: higher = stronger binding
Starting sequence: MASTL docking peptide (human); PMIAKNLMCELDE; partner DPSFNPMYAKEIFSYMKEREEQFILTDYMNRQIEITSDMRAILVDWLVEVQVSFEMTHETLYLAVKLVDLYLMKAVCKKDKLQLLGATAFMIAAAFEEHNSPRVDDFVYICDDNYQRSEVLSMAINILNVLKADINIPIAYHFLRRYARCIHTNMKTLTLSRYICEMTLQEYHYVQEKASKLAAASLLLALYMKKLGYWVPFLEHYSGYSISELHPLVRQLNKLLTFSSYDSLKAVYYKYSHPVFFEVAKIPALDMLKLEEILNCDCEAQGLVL
`L7I`: “normalised enrichment score” 0.161.
For `I3T`, “normalised enrichment score” read 0.0714.
`L11W` — result for “normalised enrichment score”: 0.275.
`A4Q`: “normalised enrichment score” -0.0855.
Under “normalised enrichment score”, `D12H` is recorded as 0.119.
For `I3N`, “normalised enrichment score” read -0.0422.
Under “normalised enrichment score”, `N6L` is recorded as -0.0792.
`L7D`: “normalised enrichment score” -0.114.
For `K5I`, “normalised enrichment score” read 0.328.
For `D12V`, “normalised enrichment score” read 0.0527.
Under “normalised enrichment score”, `A4H` is recorded as 0.00361.
`C9N` — result for “normalised enrichment score”: -0.344.
`L11C`: “normalised enrichment score” -0.157.
`K5R`: “normalised enrichment score” 0.0826.
`L7P` — result for “normalised enrichment score”: -0.156.
For `I3V`, “normalised enrichment score” read -0.438.
`A4I` — result for “normalised enrichment score”: 0.143.
For `L11G`, “normalised enrichment score” read -0.119.
For `N6M`, “normalised enrichment score” read 0.177.

Series 5
Target: Hepatocyte nuclear factor 3-beta, forkhead domain (FOXA2, Homo sapiens, UniProt Q9Y261, residues 142-269)
Technique: protein-binding microarray
Molecule type: double-stranded DNA, one strand shown
Matrix: in vitro
Tested at: not given
Setting: k-mer, scored over probes, only values ≥0.25
Direction: higher = stronger binding
Target sequence (chain): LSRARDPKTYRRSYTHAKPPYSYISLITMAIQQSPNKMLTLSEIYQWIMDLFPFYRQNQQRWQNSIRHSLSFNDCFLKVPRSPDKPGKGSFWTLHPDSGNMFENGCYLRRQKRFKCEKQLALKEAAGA
`AATGTGAA` gave an E-score of 0.309.
With `TACCAACA` the E-score was 0.312.
`ATAATTTA` gave an E-score of 0.289.
The E-score of `TATGTACA` is reported as 0.41.
`CCATATAA` has an E-score of 0.25.
`GTCAATAA` gave an E-score of 0.297.
`AACTTATT` gave an E-score of 0.267.
`AACCAATA` has an E-score of 0.284.
The E-score of `CTGTATTC` is reported as 0.324.
The E-score of `ATCACAAT` is reported as 0.254.
`ATAGCAAA` gave an E-score of 0.268.
`CATACTCA` gave an E-score of 0.279.
The E-score of `CTGCATAC` is reported as 0.273.
The E-score of `ACTATAGT` is reported as 0.34.
`CACAAACA` gave an E-score of 0.294.
For `ATTACTTA`, the E-score was 0.281.
`ATTCTATA` gave an E-score of 0.252.
